Published values gathered from unrelated publications.
Protocols differ between the studies behind these lines. ± marks the error that the study gave.
lecA: PA-I galactophilic lectin (lecA, Pseudomonas aeruginosa, UniProt Q05097)
Histone chaperone ASF1A: Histone chaperone ASF1A (Homo sapiens, UniProt Q9Y294)
Complement C3: Complement C3 (Homo sapiens, UniProt P01024)

Compound | target | test | test system | setting | scale | quantity | result
CNc1ccccc1C(=O)O[C@H]1C[C@H](n2cnc3c(N)ncnc32)O[C@@H]1COP(=O)(O)OP(=O)(O)O | Unconventional myosin-Va (Gallus gallus, UniProt Q02440, D297C/G292C/I296C/S293C/V295G) | FRET | compound complex | 15 °C, with: 2 mM MgCl2 |  | donor-acceptor distance | 18.6 Å
COc1ccc(S(=O)(=O)N2CCN(CC(=O)Nc3ccc(OC)cc3OC)CC2)cc1 | GRM4 (Homo sapiens, UniProt Q14833) | calcium mobilization, positive allosteric modulator | CHO cells expressing Gqi5 | with: glutamate EC20 |  | EC50 | inactive
CC(C)C[C@H](NC(=O)[C@H](CC(N)=O)NC(=O)[C@H](CCCNC(=N)N)NC(=O)[C@H](CC(=O)O)NC(=O)[C@@H](NC(=O)[C@@H]1CCCN1C(=O)[C@H](CO)NC(=O)[C@@H]1CCCN1)C(C)C)C(=O)N[C@@H](CCCCN)C(=O)N1CCC[C@H]1C(=O)N[C@@H](CC(=O)O)C(=O)N[C@@H](CCCNC(=N)N)C(=O)O | Growth factor receptor-bound protein 2, C-terminal SH3 domain (GRB2, Homo sapiens, UniProt P62993) | SH3 domain binding, isothermal titration calorimetry |  | concentration not given, C-terminal SH3 domain |  | binding | no binding
C[C@]12C[C@H](c3ccc(-c4ccc(C(=O)O)cc4)cc3)C3=C4CCC(=O)C=C4CC[C@H]3[C@@H]1CC[C@@]2(O)C(F)(F)C(F)(F)F | Progesterone receptor (Oryctolagus cuniculus, UniProt P06186) | endometrial transformation, McPhail test | rabbit | oral, with: progesterone |  | full efficacy dose | 1 mg/kg
CC1(C)CCN(Cc2ccc(C(=O)NC[C@]3(O)CCCN(c4cc(NCc5ccccc5)ncn4)C3)c(O)c2)CC1 | FLT3 (Homo sapiens, UniProt P36888, D835Y) | kinase activity, radiometric |  | 10 µM, with: 10 µM ATP |  | remaining activity | 68%
COc1ccc(CCCN[C@@H]2CCC[C@H]2CN[C@H]2CCC[C@@H]2CNCCCCN[C@@H]2CCC[C@H]2CN)cc1 | KDM1B (Homo sapiens, UniProt Q8NB78) | peroxidase-coupled |  |  | baseline: Ki for KDM1B over Ki for LSD1 | selectivity ratio | 6.1
CC(C)CC(=N)NCCC[C@H](N)C(=O)O | Nitric oxide synthase, inducible, dimer (Nos2, Mus musculus, UniProt P29477) | dimer content, inactivator, low-temperature SDS-PAGE |  |  |  | remaining dimer | 49 ± 5%
OC[C@H]1O[C@@H](Oc2ccc(-c3cn([C@@H]4O[C@H](CO)[C@@H](n5cc(CCCCc6cn([C@H]7[C@H](O)[C@@H](O)[C@H](n8cc(-c9ccc(O[C@@H]%10O[C@H](CO)[C@H](O)[C@H](O)[C@H]%10O)cc9)nn8)O[C@@H]7CO)nn6)nn5)[C@H](O)[C@H]4O)nn3)cc2)[C@H](O)[C@@H](O)[C@H]1O | lecA | isothermal titration calorimetry |  | 298 K |  | -TΔS | 7.2 ± 0.5 kcal/mol
CC[C@H](C)[C@H](NC(C)=O)C(=O)N[C@H]1CSSC[C@@H](C(=O)N[C@H](C(N)=O)[C@@H](C)O)NC(=O)[C@H](CCCNC(=N)N)NC(=O)[C@H](Cc2c[nH]cn2)NC(=O)[C@@H]2CCCN2C(=O)CNC(=O)[C@H](Cc2c[nH]c3ccccc23)NC(=O)[C@H](CC(=O)O)NC(=O)[C@H](CCC(N)=O)NC(=O)[C@H](Cc2cn(C)c3ccccc23)NC(=O)[C@H](C(C)C)NC1=O | Complement C3, C3b fragment (Homo sapiens, UniProt P01024) | SPR |  | pH 7.4, 25 °C |  | koff | 0.03 ± 0.01 s⁻¹
N=C(N)NCCC[C@H](NC(=O)[C@H](CCCNC(=N)N)NC(=O)[C@H](CC(N)=O)NC(=O)[C@H](CCCNC(=N)N)NC(=O)[C@@H]1CCCN1C(=O)[C@H](CCCCN)NC(=O)[C@H](CCCCN)NC(=O)[C@H](CCC(N)=O)NC(=O)[C@H](CC(=O)O)NC(=O)[C@@H](N)Cc1c[nH]c2ccccc12)C(=O)O | Neuropilin-1 (NRP1, Homo sapiens, UniProt O14786) | binding, ITC |  | pH 7.4, 30 °C |  | TΔS | -12.2 kcal/mol
CC[C@H](C)[C@H](NC(=O)[C@H](CCCNC(=N)N)NC(=O)NC[C@H](CCC(N)=O)NC(=O)NC[C@H](CC(C)C)NC(=O)NC[C@H](CCCNC(=N)N)NC(=O)NC[C@H](Cc1ccc2ccccc2c1)NC(=O)[C@H](CCCCN)NC(=O)[C@H](CCC(=O)O)NC(=O)[C@H](CCC(=O)O)NC(=O)[C@@H](NC(=O)[C@H](CO)NC(=O)[C@H](C)NC(C)=O)[C@@H](C)O)C(=O)N[C@@H](C)C(N)=O | Histone chaperone ASF1A | isothermal titration calorimetry |  | pH 7.5, 20 °C |  | -TΔS | -4.3 ± 0.2 kcal/mol
CC[C@H](C)[C@H](NC(=O)[C@@H]1CSSC[C@H](NC(=O)[C@@H](NC(C)=O)[C@@H](C)CC)C(=O)N[C@@H](C(C)C)C(=O)N[C@@H](Cc2cn(C)c3ccccc23)C(=O)N[C@@H](CCC(N)=O)C(=O)N[C@@H](CC(=O)O)C(=O)N[C@@H](Cc2c[nH]c3ccccc23)C(=O)N(C)CC(=O)N[C@@H](C)C(=O)N[C@@H](Cc2c[nH]cn2)C(=O)N[C@@H](CCCNC(=N)N)C(=O)N1)C(N)=O | Complement C3 | ITC |  | concentration not given |  | ΔG of binding | -11.2 kcal/mol
CC[C@H](C)[C@H](NC(=O)[C@H](CCCNC(=N)N)NC(=O)[C@H](CCCCN)NC(=O)[C@@H](NC(=O)[C@H](C)NC(=O)[C@H](CCCNC(=N)N)NC(=O)[C@H](CCC(N)=O)NC(=O)[C@H](CO)NC(=O)[C@H](CCCCN)NC(=O)[C@H](CC(N)=O)NC(=O)[C@@H](N)CCCNC(=N)N)[C@@H](C)O)C(=O)N[C@@H](COP(=O)(O)O)C(=O)N[C@@H](Cc1c[nH]cn1)C(=O)N[C@@H](CCSC)C(=O)N1CCC[C@H]1C(=O)N[C@@H](CO)C(=O)N[C@@H](CCCNC(=N)N)C(=O)N1CCC[C@H]1C(=O)N[C@@H](CCC(=O)O)C(=O)N[C@@H](CC(C)C)C(=O)N[C@@H](CO)C(=O)N[C@@H](C)C(=O)N[C@H](C(=O)N[C@@H](C)C(=O)N[C@H](C(=O)N[C@@H](CC(=O)O)C(=O)N[C@@H](CC(C)C)C(=O)N[C@@H](CCCNC(=N)N)C(=O)N[C@@H](CCCCN)C(=O)N[C@@H](CC(=O)O)C(=O)N[C@@H](CCCCN)C(=O)N[C@@H](C)C(=O)N[C@@H](CCCCN)C(=O)N[C@@H](COP(=O)(O)O)C(=O)N[C@@H](CS)C(=O)OC)[C@@H](C)O)C(C)C | YWHAZ (Homo sapiens, UniProt P63104) | dissociation, stopped-flow fluorescence polarization |  | two-step model |  | koff | 9.69 s⁻¹
CC[C@H](C)[C@H](NC(=O)[C@H](CCCNC(=N)N)NC(=O)NC[C@H](CCC(N)=O)NC(=O)NC[C@H](CC(C)C)NC(=O)NC[C@H](CCCNC(=N)N)NC(=O)NC[C@H](C)NC(=O)[C@H](CCCCN)NC(=O)[C@H](CCC(=O)O)NC(C)=O)C(=O)N[C@@H](C)C(N)=O | Histone chaperone ASF1A | isothermal titration calorimetry |  | concentration not given, pH 7.5, 20 °C |  | binding enthalpy | -1.8 ± 0.4 kcal/mol
N#C/C(=C\c1ccc(O)c(O)c1)C(=O)c1ccc(O)c(O)c1 | RYR1 (Sus scrofa, UniProt P16960) | inhibitor | skeletal SR vesicles | concentration not given, with: Ca2+ 30 µM |  | [3H]ryanodine binding | inhibited
C=C1CCN2C(=O)COc3cccc(c3)C(CCc3ccc(OC)c(OC)c3)OC(=O)C3CCCCN3C(=O)C(=O)C(C)(C)COC(=O)C(CC)NC(=O)C2C1 (stereo not drawn) | FKBP1A/MAPRE1 (Homo sapiens, UniProt P62942+Q15691) | FKBP12-MAPRE1 proximity, TR-FRET |  |  | baseline: DMSO | Emax | 93%
CSCC[C@H](NC(=O)[C@H](CO)NC(=O)[C@@H](NC(=O)[C@H](CCC(N)=O)NC(=O)[C@@H](CCCNC(=N)N)NC(=O)[C@@H](CCCNC(=N)N)NC(=O)[C@@H](CCCCN)NC(=O)[C@@H](CCCNC(=N)N)NC(C)=O)[C@@H](C)O)C(=O)N[C@H](C(=O)N[C@@H](CC(=O)O)C(=O)N[C@@H](Cc1ccccc1)C(=O)N[C@@H](Cc1ccc(O)cc1)C(=O)N[C@@H](Cc1c[nH]cn1)C(=O)N[C@@H](CO)C(=O)N[C@H](CCCCN)C(=O)N[C@H](CCCNC(=N)N)C(=O)N[C@H](CCCNC(=N)N)C(N)=O)[C@@H](C)O | PCNA (Homo sapiens, UniProt P12004) | binding, isothermal titration calorimetry |  | pH 7.4, 25 °C, 100 mM NaCl, with: p21 peptide |  | entropic term −TΔS | 8.37 ± 0.239 kcal/mol
CSCC[C@H](NC(C)=O)C(=O)NCC(=O)NCC(=O)N[C@@H](CCC(=O)O)C(=O)N[C@@H](CC(C)C)C(=O)N[C@H](C(=O)N[C@H](C(=O)NCC(=O)N[C@@H](CC(C)C)C(=O)NCC(=O)N[C@@H](C)C(=O)N[C@@H](CC(C)C)C(=O)N[C@@H](CCCNC(=N)N)C(=O)N[C@@H](CCCNC(=N)N)C(=O)N[C@@H](CCCNC(=N)N)C(=O)N[C@@H](CCCCN)C(=O)N[C@@H](CCCNC(=N)N)C(=O)N[C@@H](CC(C)C)C(=O)N[C@@H](CC(C)C)C(=O)N[C@@H](CCC(=O)O)C(=O)N[C@@H](CCC(N)=O)C(=O)N[C@@H](CCC(=O)O)C(=O)N[C@@H](CCCCN)C(=O)N[C@@H](CCCNC(=N)N)C(N)=O)[C@@H](C)O)C(C)C | Kcnma1 (Mus musculus, UniProt Q08460) | BK current, blocker, inside-out patch |  | 25 µM, +50 mV |  | blocking time constant | 21 ms
[N-]=[N+]=NCCNC(=O)c1ccc(S[C@@H]2O[C@H](CO)[C@H](O)[C@H](O)[C@H]2O)cc1 | lecA | binding, isothermal titration calorimetry |  | 25 °C |  | −TΔS | 4.45 ± 0.12 kcal/mol
CC[C@H](C)[C@H](NC(=O)[C@H](CCCNC(=N)N)NC(C)=O)C(=O)N1CCC[C@H]1C(=O)N[C@@H](COP(=O)(O)O)C(=O)N[C@@H](Cc1ccc(O)cc1)C(=O)N[C@@H](CCCNC(=N)N)C(=O)N[C@@H](Cc1ccc(O)cc1)C(=O)N[C@@H](CCCNC(=N)N)C(N)=O | Activity-regulated cytoskeleton-associated protein, residues 207–277 (ARC, Homo sapiens, UniProt Q7LC44) | binding, isothermal titration calorimetry |  | pH 7.4, 25 °C |  | -TΔS | 60.2 kcal/mol
CC[C@H](C)[C@H](NC(C)=O)C(=O)N[C@H]1CSSC[C@@H](C(=O)N[C@H](C(N)=O)[C@@H](C)O)NC(=O)[C@H](CCCNC(=N)N)NC(=O)[C@H](Cc2c[nH]cn2)NC(=O)[C@H](C)NC(=O)CNC(=O)[C@H](Cc2c[nH]c3ccccc23)NC(=O)[C@H](CC(=O)O)NC(=O)[C@H](CCC(N)=O)NC(=O)[C@H](Cc2ccc(OC)cc2)NC(=O)[C@H](C(C)C)NC1=O | Complement C3 | ITC |  | 25 °C | more negative = stronger binding | ΔG | -9.5 kcal/mol
N#CCC(=O)N1CCC[C@H]1Cn1nc(-c2ccc(Oc3ccccc3)cc2F)c2c(N)ncnc21 | BTK (Homo sapiens, UniProt Q06187) |  |  |  |  | residence time | < 6 min
O=C1c2ccc(O)cc2OC(c2ccc(O)cc2)C1C1C(=O)c2ccc(O)cc2OC1c1ccc(O)cc1 (stereo not drawn) | laccase (Trametes versicolor) | substrate, Hill kinetic model |  | product formation |  | Hill coefficient | 1.42
O=C(NC1CCCCC1)C(c1cccnc1)N(C(=O)CCl)c1ccc(F)cc1 (racemic) | GSTO1 (Homo sapiens, UniProt P78417) | covalent inhibitor, LC-MS/MS |  | 10 µM, enzyme 50 µM | baseline: total labelling | labelling at non-active-site cysteines | 0 to 0.6%

Repeated from above:
Compound | target | test | test system | setting | scale | quantity | result
CSCC[C@H](NC(=O)[C@H](CO)NC(=O)[C@@H](NC(=O)[C@H](CCC(N)=O)NC(=O)[C@@H](CCCNC(=N)N)NC(=O)[C@@H](CCCNC(=N)N)NC(=O)[C@@H](CCCCN)NC(=O)[C@@H](CCCNC(=N)N)NC(C)=O)[C@@H](C)O)C(=O)N[C@H](C(=O)N[C@@H](CC(=O)O)C(=O)N[C@@H](Cc1ccccc1)C(=O)N[C@@H](Cc1ccc(O)cc1)C(=O)N[C@@H](Cc1c[nH]cn1)C(=O)N[C@@H](CO)C(=O)N[C@H](CCCCN)C(=O)N[C@H](CCCNC(=N)N)C(=O)N[C@H](CCCNC(=N)N)C(N)=O)[C@@H](C)O | PCNA (Homo sapiens, UniProt P12004) | binding, isothermal titration calorimetry |  | pH 7.4, 25 °C, 100 mM NaCl, with: p21 peptide |  | entropic term −TΔS | 8.37 ± 0.239 kcal/mol
[N-]=[N+]=NCCNC(=O)c1ccc(S[C@@H]2O[C@H](CO)[C@H](O)[C@H](O)[C@H]2O)cc1 | lecA | binding, isothermal titration calorimetry |  | 25 °C |  | −TΔS | 4.45 ± 0.12 kcal/mol
N#C/C(=C\c1ccc(O)c(O)c1)C(=O)c1ccc(O)c(O)c1 | RYR1 (Sus scrofa, UniProt P16960) | inhibitor | skeletal SR vesicles | concentration not given, with: Ca2+ 30 µM |  | [3H]ryanodine binding | inhibited
CC[C@H](C)[C@H](NC(=O)[C@H](CCCNC(=N)N)NC(C)=O)C(=O)N1CCC[C@H]1C(=O)N[C@@H](COP(=O)(O)O)C(=O)N[C@@H](Cc1ccc(O)cc1)C(=O)N[C@@H](CCCNC(=N)N)C(=O)N[C@@H](Cc1ccc(O)cc1)C(=O)N[C@@H](CCCNC(=N)N)C(N)=O | Activity-regulated cytoskeleton-associated protein, residues 207–277 (ARC, Homo sapiens, UniProt Q7LC44) | binding, isothermal titration calorimetry |  | pH 7.4, 25 °C |  | -TΔS | 60.2 kcal/mol
